Experimental data pooled from the literature.
Every numbered part comes from another study and shows a few of its results, in no order.
Chain of UniProt P78368 (whole entry, looked up): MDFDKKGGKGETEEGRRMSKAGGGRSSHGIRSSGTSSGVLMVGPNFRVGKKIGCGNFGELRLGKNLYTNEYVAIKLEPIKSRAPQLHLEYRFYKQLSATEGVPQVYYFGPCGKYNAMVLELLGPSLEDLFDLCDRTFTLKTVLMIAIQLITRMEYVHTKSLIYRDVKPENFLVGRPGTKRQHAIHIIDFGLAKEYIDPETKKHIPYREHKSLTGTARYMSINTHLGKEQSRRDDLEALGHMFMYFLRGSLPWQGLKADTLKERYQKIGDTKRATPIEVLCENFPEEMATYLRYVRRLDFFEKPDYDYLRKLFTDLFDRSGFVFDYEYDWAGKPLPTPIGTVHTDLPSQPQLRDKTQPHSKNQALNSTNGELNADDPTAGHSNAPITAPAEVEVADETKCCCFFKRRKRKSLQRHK
Chain of UniProt Q02763 (whole entry, looked up): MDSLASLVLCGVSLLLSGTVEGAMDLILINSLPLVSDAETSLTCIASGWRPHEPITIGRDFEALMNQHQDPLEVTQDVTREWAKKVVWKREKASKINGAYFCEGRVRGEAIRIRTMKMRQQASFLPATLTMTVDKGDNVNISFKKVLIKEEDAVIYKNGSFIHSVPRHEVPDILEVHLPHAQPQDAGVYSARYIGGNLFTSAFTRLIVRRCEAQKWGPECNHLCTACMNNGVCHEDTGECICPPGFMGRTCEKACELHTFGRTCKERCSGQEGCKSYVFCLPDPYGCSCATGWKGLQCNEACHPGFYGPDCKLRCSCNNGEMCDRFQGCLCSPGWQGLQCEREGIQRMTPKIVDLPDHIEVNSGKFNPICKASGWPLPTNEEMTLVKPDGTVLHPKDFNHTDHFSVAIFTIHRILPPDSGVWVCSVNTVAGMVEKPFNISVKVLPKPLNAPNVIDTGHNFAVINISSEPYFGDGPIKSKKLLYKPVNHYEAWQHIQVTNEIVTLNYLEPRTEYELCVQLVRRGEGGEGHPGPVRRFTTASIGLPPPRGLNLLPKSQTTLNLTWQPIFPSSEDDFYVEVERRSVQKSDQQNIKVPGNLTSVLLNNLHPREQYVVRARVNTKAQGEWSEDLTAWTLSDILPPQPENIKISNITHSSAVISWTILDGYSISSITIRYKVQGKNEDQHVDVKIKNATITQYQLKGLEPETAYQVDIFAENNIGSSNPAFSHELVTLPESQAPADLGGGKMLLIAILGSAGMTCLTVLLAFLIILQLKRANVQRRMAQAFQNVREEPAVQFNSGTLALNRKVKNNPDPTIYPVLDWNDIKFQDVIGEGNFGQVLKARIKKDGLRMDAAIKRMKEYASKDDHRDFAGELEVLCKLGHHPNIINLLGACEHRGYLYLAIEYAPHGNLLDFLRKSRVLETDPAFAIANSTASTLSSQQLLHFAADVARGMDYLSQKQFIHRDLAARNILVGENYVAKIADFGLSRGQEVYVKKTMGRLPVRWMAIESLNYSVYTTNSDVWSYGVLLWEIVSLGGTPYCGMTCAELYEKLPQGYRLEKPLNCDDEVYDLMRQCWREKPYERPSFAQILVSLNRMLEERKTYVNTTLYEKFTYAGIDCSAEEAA
Chain of UniProt O00329 (whole entry, looked up): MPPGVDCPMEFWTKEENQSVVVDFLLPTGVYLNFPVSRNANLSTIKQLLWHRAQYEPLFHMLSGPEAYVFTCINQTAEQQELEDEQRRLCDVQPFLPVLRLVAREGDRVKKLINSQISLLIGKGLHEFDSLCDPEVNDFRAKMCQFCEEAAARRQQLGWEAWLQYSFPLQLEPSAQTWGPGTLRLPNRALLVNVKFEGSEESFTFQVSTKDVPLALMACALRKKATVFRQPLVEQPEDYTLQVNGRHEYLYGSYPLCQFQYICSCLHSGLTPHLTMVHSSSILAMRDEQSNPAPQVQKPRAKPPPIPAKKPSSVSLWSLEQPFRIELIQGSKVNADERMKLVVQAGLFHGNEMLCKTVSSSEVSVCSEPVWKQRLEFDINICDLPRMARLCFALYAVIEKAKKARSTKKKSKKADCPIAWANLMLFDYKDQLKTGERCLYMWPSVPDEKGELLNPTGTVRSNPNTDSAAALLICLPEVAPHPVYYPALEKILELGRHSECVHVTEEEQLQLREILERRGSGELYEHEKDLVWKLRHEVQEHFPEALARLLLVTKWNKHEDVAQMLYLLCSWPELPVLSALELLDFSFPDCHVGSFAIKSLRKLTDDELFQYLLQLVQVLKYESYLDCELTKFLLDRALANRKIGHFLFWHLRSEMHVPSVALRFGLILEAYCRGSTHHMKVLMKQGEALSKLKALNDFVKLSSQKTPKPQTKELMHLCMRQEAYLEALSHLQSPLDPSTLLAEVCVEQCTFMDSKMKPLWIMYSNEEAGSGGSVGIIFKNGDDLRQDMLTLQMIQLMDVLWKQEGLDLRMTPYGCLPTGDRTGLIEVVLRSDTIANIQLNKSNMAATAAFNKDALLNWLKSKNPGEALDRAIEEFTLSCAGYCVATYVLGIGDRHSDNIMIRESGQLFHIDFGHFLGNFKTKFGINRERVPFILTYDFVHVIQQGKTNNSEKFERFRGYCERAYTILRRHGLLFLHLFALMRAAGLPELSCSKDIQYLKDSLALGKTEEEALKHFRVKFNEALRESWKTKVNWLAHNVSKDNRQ
Chain of UniProt Q9UL54 (whole entry, looked up): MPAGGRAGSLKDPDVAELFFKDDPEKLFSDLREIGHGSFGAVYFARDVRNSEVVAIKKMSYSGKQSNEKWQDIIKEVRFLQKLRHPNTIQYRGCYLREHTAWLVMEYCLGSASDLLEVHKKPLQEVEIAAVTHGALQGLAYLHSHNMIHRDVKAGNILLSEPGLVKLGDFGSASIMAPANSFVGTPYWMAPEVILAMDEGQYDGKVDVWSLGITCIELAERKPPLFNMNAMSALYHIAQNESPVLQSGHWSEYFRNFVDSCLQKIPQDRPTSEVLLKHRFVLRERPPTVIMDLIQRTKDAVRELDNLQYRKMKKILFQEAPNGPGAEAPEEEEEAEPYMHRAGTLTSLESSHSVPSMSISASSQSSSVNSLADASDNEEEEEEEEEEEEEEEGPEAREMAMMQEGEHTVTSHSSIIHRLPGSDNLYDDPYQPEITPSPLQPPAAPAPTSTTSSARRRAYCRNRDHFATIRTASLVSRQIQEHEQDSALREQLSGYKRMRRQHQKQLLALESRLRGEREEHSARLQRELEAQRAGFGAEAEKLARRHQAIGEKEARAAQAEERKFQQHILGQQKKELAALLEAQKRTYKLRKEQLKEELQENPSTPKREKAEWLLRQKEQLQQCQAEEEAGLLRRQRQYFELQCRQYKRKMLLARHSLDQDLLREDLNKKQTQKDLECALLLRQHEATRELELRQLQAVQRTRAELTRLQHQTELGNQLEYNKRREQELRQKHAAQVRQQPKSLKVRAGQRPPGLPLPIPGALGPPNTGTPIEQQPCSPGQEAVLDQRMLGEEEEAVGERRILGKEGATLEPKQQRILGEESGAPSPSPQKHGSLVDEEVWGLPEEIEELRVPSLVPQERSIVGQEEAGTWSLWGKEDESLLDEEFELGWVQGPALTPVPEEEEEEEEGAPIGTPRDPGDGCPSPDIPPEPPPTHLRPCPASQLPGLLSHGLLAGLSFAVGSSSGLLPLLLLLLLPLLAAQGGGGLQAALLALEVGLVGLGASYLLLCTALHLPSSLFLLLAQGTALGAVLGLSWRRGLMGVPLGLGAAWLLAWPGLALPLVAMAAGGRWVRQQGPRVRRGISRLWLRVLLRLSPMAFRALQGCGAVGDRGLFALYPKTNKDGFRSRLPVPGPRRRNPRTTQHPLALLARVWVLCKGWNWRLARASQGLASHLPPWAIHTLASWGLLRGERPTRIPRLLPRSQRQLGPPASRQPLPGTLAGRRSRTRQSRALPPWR
Chain of UniProt P49841 (whole entry, looked up): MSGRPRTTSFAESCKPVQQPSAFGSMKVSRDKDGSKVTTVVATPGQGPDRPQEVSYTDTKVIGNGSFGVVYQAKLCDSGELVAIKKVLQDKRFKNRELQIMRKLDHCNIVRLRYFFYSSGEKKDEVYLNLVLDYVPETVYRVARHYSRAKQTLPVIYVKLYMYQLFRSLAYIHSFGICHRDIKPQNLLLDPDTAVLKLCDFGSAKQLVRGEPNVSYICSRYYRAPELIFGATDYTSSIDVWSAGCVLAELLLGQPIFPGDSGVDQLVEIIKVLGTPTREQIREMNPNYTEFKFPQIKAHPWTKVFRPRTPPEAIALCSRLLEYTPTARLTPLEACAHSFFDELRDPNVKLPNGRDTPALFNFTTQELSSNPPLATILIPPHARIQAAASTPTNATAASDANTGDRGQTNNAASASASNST
Chain of UniProt P36507 (whole entry, looked up): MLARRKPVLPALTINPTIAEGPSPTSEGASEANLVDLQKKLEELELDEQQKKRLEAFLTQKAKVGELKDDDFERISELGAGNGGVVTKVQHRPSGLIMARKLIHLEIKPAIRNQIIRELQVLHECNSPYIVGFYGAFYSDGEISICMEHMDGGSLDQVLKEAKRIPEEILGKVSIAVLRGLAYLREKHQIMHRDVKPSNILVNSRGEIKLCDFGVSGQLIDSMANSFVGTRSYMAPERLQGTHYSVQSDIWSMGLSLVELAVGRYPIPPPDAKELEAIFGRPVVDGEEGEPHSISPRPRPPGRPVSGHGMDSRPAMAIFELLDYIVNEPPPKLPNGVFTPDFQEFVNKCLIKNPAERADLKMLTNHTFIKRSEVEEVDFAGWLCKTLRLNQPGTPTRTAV
Chain of UniProt P27361 (whole entry, looked up): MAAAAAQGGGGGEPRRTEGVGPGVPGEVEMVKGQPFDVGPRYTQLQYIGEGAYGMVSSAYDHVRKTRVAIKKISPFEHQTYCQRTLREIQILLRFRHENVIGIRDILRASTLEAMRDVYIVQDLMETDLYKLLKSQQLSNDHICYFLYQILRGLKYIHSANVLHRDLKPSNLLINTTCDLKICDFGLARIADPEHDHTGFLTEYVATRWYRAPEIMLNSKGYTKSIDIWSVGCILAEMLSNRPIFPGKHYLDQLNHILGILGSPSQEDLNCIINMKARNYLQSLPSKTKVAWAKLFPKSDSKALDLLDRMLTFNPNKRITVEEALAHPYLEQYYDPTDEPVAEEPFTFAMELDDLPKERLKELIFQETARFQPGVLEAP

Series 1 — effect on: enzyme activity; mode: inhibitor; concentration: 0.5 µM; reference: control; quantity: remaining activity
Compound: C[S+]([O-])c1ccc(-c2nc(-c3ccncc3)c(-c3ccc(F)cc3)[nH]2)cc1 (centres unmarked)
MERTK (Homo sapiens, UniProt Q12866): 93.9%
MAP2K2 (Homo sapiens, UniProt P36507): 99.9%
TAOK2 (Homo sapiens, UniProt Q9UL54): 94%
GSK3B (Homo sapiens, UniProt P49841): 80.2%
FRK (Homo sapiens, UniProt P42685): 87.2%
MAP3K14 (Homo sapiens, UniProt Q99558): 118%
CSNK1G2 (Homo sapiens, UniProt P78368): 95.7%
MST1R (Homo sapiens, UniProt Q04912): 101%
ABL2 (Homo sapiens, UniProt P42684): 91.5%
MAPK3 (Homo sapiens, UniProt P27361): 101%
JAK3 (Homo sapiens, UniProt P52333): 93.9%
NEK6 (Homo sapiens, UniProt Q9HC98): 103%
CSNK1G3 (Homo sapiens, UniProt Q9Y6M4): 103%
RPS6KA2 (Homo sapiens, UniProt Q15349): 102%
FGFR3 (Homo sapiens, UniProt P22607): 97%
EPHA3 (Homo sapiens, UniProt P29320): 96.1%
MAPKAPK2 (Homo sapiens, UniProt P49137): 98.3%
ULK3 (Homo sapiens, UniProt Q6PHR2): 83.2%
ARAF (Homo sapiens, UniProt P10398): 42.7%
ACVR1B (Homo sapiens, UniProt P36896): 127%
GRK7 (Homo sapiens, UniProt Q8WTQ7): 107%
TEK (Homo sapiens, UniProt Q02763): 94.5%
WEE1 (Homo sapiens, UniProt P30291): 92.1%

Series 2 — organism: Sarcocystis neurona; effect on: parasite growth; concentration: 10 µM; time: 96 h; setting: secondary screen; quantity: inhibition
CCCCNC(=O)NS(=O)(=O)c1ccc(C)cc1: -23.8%
C=C(CC)C(=O)c1ccc(OCC(=O)O)c(Cl)c1Cl: 11.5%
CCS(=O)(=O)CCn1c([N+](=O)[O-])cnc1C: -20.9%

Series 3 — effect on: cell-free assay; method: competition with immobilised ligand; concentration: 1 µM; quantity: remaining binding
Compound: CN(C)c1ncnc(-c2ccc3nc(Nc4cc(CN5CCN(C(=O)CC(F)(F)F)CC5)ccn4)[nH]c3c2)c1Cl
SBK3 (Homo sapiens, UniProt P0C264): 100%
HIPK1 (Homo sapiens, UniProt Q86Z02): 74%
Tyrosine-protein kinase ABL1, phosphorylated (ABL1, Homo sapiens, UniProt P00519, Q252H): 29%
TNK1 (Homo sapiens, UniProt Q13470): 96%
PIK3CD (Homo sapiens, UniProt O00329): 67%
MAP4K5 (Homo sapiens, UniProt Q9Y4K4): 100%
SRMS (Homo sapiens, UniProt Q9H3Y6): 88%
EGFR (Homo sapiens, UniProt P00533, del752-759): 88%

Series 4 — host: mouse; sample: microsomes or S9; concentration: 2 µM; time: 0.5 h; quantity: remaining compound
COc1ccc(N2C(=O)CCc3c(-c4ccccc4)cc(N(C)C)cc32)cc1: 7.95%
N#Cc1c[nH]c(C(=O)N2CC(=O)NC3CCCCC32)c1 (centres unmarked): 75.9%
CC[S+]([O-])C1CCCCC1NC(=O)NC1CC(C)(C)OC1(C)C (centres unmarked): 75.4%
CC1=C(COc2ccc3ccc(=O)oc3c2)[C@@]2(C)CCC(=O)C(C)(C)[C@@H]2CC1: 0%
COc1ccc(CCc2n[nH]c(NC(=O)Cn3cc(OC)c(=O)cc3C)n2)cc1: 95.2%

Series 5 — sample: 1,9-decadiene/PBS; pH: 7.4; quantity: logD
CC(C)C[C@@H]1NC(=O)[C@H](CC(C)C)NC(=O)[C@@H](C(C)C)NC(=O)[C@@H](C)NC(=O)[C@H](C)NC(=O)[C@@H](CC(C)C)NC(=O)[C@H](C)NC1=O: -2.06
CC(C)C[C@@H]1NC(=O)[C@H](CC(C)C)NC(=O)[C@@H](CC(C)C)NC(=O)[C@H](C)NC(=O)[C@@H](Cc2cscn2)NC(=O)[C@@H](CC(C)C)NC(=O)[C@H](C)NC1=O: -1.08
CC(C)C[C@@H]1NC(=O)[C@H](CC(C)C)NC(=O)[C@H](CC(C)C)NC(=O)[C@H](CC(C)C)NC(=O)[C@@H](Cc2cscn2)NC(=O)[C@H](CCC(=O)N2CCCC2)NC(=O)[C@H](C)NC1=O: -1.89
CC(C)C[C@@H]1NC(=O)[C@H](CC(C)C)NC(=O)[C@@H](CC(C)C)NC(=O)[C@H](CC(C)C)NC(=O)[C@@H](Cc2cscn2)NC(=O)[C@@H](CC(C)C)NC(=O)[C@H](C)NC1=O: 0.372
CC(C)C[C@@H]1NC(=O)[C@H](CC(C)C)NC(=O)[C@H](CC(C)C)NC(=O)[C@H](Cc2cscn2)NC(=O)[C@@H](Cc2cscn2)NC(=O)[C@@H](CC(C)C)NC(=O)[C@H](C)NC1=O: -0.514
CC(C)C[C@@H]1NC(=O)[C@H](CC(C)C)NC(=O)[C@@H](CC(C)C)NC(=O)[C@H](C(C)C)NC(=O)[C@H](C)NC(=O)[C@@H](CC(C)C)NC(=O)[C@H](C)NC1=O: -0.306
CC(C)C[C@@H]1NC(=O)[C@@H](C)NC(=O)[C@@H](CC(C)C)NC(=O)[C@H](C)NC(=O)[C@H](C(C)C)NC(=O)[C@H](CC(C)C)NC(=O)[C@@H](CC(C)C)NC1=O: -0.231
CC(C)C[C@@H]1NC(=O)[C@H](CC(C)C)NC(=O)[C@@H](CC(C)C)NC(=O)[C@H](C(C)C)NC(=O)[C@@H](CCC(=O)N2CCCC2)NC(=O)[C@H](C)NC(=O)[C@H](C)NC1=O: -2.8
